# Assay results gathered from unrelated publications.
# Each numbered part is a random draw from the data of one study; scales do not carry over between parts. Positions count from the first letter of the parent shown.

# Set 1 — target: CCND3, cyclin fold, Cln2 fusion (human); technique: yeast growth competition, sequencing; sample: yeast; notes: weak parent motif; baseline: not given; reading: higher = stronger binding
# Starting sequence: CDC6 docking peptide (human); TLKGRRLVFDNQL; partner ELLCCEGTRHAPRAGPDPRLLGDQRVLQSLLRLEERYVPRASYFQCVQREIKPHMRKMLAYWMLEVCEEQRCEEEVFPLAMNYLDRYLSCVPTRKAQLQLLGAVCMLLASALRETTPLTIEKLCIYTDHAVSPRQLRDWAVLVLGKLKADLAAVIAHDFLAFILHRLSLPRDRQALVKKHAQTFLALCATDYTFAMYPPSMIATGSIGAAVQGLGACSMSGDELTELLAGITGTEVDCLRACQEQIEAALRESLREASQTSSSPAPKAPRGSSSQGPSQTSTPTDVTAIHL
Variant,normalised enrichment score
TLKGRRLVFDRQL [N11R],0.158
TLKGRRLVFDNML [Q12M],0.117
TLKGRRFVFDNQL [L7F],0.0841
TLKDRRLVFDNQL [G4D],0.244
HLKGRRLVFDNQL [T1H],0.137
TLKGRRLVFDNKL [Q12K],0.0376
TLKPRRLVFDNQL [G4P],0.117
ILKGRRLVFDNQL [T1I],0.105
TLKGRRLVWDNQL [F9W],0.195
TLKGRRLVFQNQL [D10Q],0.0681
TLKGRRLVFDSQL [N11S],0.0852
VLKGRRLVFDNQL [T1V],0.191
TLNGRRLVFDNQL [K3N],0.098
TLKGRRLVFDNQF [L13F],0.127
TLKFRRLVFDNQL [G4F],0.0116
TLKGRRLVFDNQY [L13Y],0.157

# Set 2 — technique: RNA Bind-n-Seq; form: RNA; sample: in vitro; concentration: 200 nM; notes: whole 134-nt RNA, ends assumed; together with: 150 mM LiCl; baseline: input library; reading: higher = stronger binding; all molecules: 7-deaza-guanosine replaces G
# Target: Ras GTPase-activating protein-binding protein 1, full length (G3BP1, Homo sapiens, UniProt Q13283)
# Sequence of UniProt Q13283 (whole entry, looked up): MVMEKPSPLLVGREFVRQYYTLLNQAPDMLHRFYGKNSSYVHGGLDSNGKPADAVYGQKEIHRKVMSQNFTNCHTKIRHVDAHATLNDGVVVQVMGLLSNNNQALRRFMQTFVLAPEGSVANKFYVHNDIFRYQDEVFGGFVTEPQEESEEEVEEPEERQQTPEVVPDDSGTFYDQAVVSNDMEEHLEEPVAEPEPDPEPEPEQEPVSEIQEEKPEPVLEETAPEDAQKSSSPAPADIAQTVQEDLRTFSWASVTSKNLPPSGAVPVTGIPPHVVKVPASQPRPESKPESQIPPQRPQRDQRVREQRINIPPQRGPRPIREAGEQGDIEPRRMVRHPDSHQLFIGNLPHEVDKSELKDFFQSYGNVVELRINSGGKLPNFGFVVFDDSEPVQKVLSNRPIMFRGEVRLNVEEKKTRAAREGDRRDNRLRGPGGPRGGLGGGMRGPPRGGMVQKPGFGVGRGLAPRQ
# All sequences stand within: GGGAGUUCUACAGUCCGACGAUC … UGGAAUUCUCGGGUGUCAAGG
Strand,log2 enrichment
AAGUCCUGUGCUACACAUCGUAUGUACCGAAUCGGGUUUUGGUUUUGGGGUUUUGGGAAAGUAUUAUGUUACGCCGUUCGGAUCUGCACU,-0.0331
UUCUAUUUCUUUCCUUAAUGUUUUUUUCUUCCCUACUGUUUUAUCCUCCCUUUGCUUUGGAAGGAUAUUGCUGCAUAUCGAGCUAAAGGA,0.794
CCUCAAGUCCUGUGCUACACAUCGUAUGUACCGAAUCGGGCGGGGCGGCGGGGAAAGUAUUAUGUUACGCCGUUCGGAUCUGCACUUCCA,-0.0957
UCCUGUGCUACACAUCGUAUGUACCGAAUCGGGGAAAAAGGGGUUUUUUUGGGGAGGGGAAAGUAUUAUGUUACGCCGUUCGGAUCUGCA,0.118
UCCUGUGCUACACAUCGUAUGUACCGAAUCGGGGUUUGGGGAAAAAAAGGGGAAAGGGGAAAGUAUUAUGUUACGCCGUUCGGAUCUGCA,0.0522
CUGUGCUACACAUCGUAUGUACCGAAUCGGGAAAAAAGGGGAAAAAAGGGGAAAAAAGGGGAAAGUAUUAUGUUACGCCGUUCGGAUCUG,0.458
CAAGUCCUGUGCUACACAUCGUAUGUACCGAAUCGGAGGUUUUUUUGGAAAAAGGAAAGUAUUAUGUUACGCCGUUCGGAUCUGCACUUC,-0.496
UUCCUCAAGUCCUGUGCUACACAUCGUAUGUACCGAAUCGGGCGGCGGCGGAAAGUAUUAUGUUACGCCGUUCGGAUCUGCACUUCCAGC,1.11
UUGUCUUCUGAGAUGUUGGGCCCCUCUUGGGAUGGAGAUGAAGCAGAAUCCACUGGUGAAAUCAUUAGACUUGGAGACACAGCACACACC,0.146
UGGGCAUUUUGGUGGAGACGAUGAGCACCAACGACACGAUCGUCAGUGGCACGCUGCCCCAGCGCAUGGCGUCCUGCCUGGAGGUGCUGG,-0.753
UGGGAGGUGGAUUUUGUUCAUUUUUUUAGCUCAUUUCCAGGGGUGGGAAUUUUUUUUUAAUAUGUGUCAUGAAUAAAGUUGUUUUUGAAA,0.108

# Set 3 — technique: DHFR PCA, deep sequencing; sample: yeast; together with: (+)-ABA 0.032 µM; baseline: wild-type fitted maximum; reading: higher = stronger binding
# Target: ABI1, truncated, D143A, DHFR fusion (Arabidopsis thaliana)
# Notes: methotrexate growth selection, single substitutions
# Starting sequence: PYL1, truncated, DHFR fusion (Arabidopsis thaliana); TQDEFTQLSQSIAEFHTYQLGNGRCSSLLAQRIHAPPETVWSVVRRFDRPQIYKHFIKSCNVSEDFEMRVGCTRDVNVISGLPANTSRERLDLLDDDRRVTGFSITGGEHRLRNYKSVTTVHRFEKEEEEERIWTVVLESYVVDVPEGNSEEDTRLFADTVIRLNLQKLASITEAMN
Variant,relative binding score
S87H,43.7%
F5W,32.2%
N85M,63.8%
F47N,2.24%
V43D,0.677%
V121M,7.12%
S63E,21.2%
N165E,4.51%
L29W,0.0277%
F56M,-4.29%
I12Y,-4.54%

# Single results of other studies
Molecule,target,test,system,conditions,how to read,measurement,result
"PhoQ, residues 284 288 289 292 302 303 TLASMF","PhoP, residues 12 14 15 18 19 AWHSL (Escherichia coli, UniProt P23836)","Sort-seq, measured: YFP reporter",E. coli,"PhoQ-PhoP variant library, together with: 10 µM Mg2+","baseline: high Mg2+ state, higher = stronger signaling",fold induction,3.78

# Excerpt of the above (single results of other studies):
Molecule,target,test,system,conditions,how to read,measurement,result
"PhoQ, residues 284 288 289 292 302 303 TLASMF","PhoP, residues 12 14 15 18 19 AWHSL (Escherichia coli, UniProt P23836)","Sort-seq, measured: YFP reporter",E. coli,"PhoQ-PhoP variant library, together with: 10 µM Mg2+","baseline: high Mg2+ state, higher = stronger signaling",fold induction,3.78
